Results gathered from unrelated publications.
A part holds a random share of what one study measured.

Block 1
Target: Interferon regulatory factor 5, full length, phosphomimetic (IRF5, Homo sapiens, UniProt Q13568-2, residues 1-514, K96S/S451D/S453D/S456D/S462D)
Technique: protein-binding microarray
Molecule type: double-stranded DNA, one strand shown
Sample: in vitro
Concentration: 250 nM
Notes: 60-bp whole probe
Added: salmon DNA 0.4 mg/ml
Baseline: random background probes
Direction: higher = stronger binding
All sequences stand within: GCCTAGCAC … GTCTTGATTCGCTTGACGCTGCTG
Oligonucleotide	log fluorescence [z-score]
TCTTATATACCTGTATATCTGTGCTAG	0.85
GACGGACTCCTTATCCTGACGTGCTAG	-0.67
TATGTTCCCTATTTAAGGCTGTGCTAG	0.347
GACGATATCGACTTTCGGGACGTGCTA	6.91
AAATGTTTTGTTTTTCATTAGTGCTAG	2.14
TCAACTCTCTTGTCTGGAACTGTGCTA	0.369
GACGGTTTCGGTTTCGGAACGTGCTAG	11
GACGGACTGGGGGATCGGGACGTGCTA	0.0457
TCAACTTCTGTTTTTGCACTGTGCTAG	0.991
AACGGTTCCGGTTTCGGGACGTGCTAG	5.1
GACGATTTCAGTTCCGAAACGTGCTAG	2.42
TCAATGTTCCTTATTTAACTGTGCTAG	0.642
TTCGGACTGCTTTTCCTTTAGTGCTAG	0.533
GACGGTTTCCCTCTCCTGACGTGCTAG	0.708
TCAAATTTCCCTCTCCCACTGTGCTAG	0.716
TTAGGACTTGGACTGGGTTAGTGCTAG	-0.375

Block 2
Target: Sal-like protein 4, full length isoform A (SALL4, Homo sapiens, UniProt Q9UJQ4, residues 1-1053)
Chain of UniProt Q9UJQ4 (whole entry, looked up): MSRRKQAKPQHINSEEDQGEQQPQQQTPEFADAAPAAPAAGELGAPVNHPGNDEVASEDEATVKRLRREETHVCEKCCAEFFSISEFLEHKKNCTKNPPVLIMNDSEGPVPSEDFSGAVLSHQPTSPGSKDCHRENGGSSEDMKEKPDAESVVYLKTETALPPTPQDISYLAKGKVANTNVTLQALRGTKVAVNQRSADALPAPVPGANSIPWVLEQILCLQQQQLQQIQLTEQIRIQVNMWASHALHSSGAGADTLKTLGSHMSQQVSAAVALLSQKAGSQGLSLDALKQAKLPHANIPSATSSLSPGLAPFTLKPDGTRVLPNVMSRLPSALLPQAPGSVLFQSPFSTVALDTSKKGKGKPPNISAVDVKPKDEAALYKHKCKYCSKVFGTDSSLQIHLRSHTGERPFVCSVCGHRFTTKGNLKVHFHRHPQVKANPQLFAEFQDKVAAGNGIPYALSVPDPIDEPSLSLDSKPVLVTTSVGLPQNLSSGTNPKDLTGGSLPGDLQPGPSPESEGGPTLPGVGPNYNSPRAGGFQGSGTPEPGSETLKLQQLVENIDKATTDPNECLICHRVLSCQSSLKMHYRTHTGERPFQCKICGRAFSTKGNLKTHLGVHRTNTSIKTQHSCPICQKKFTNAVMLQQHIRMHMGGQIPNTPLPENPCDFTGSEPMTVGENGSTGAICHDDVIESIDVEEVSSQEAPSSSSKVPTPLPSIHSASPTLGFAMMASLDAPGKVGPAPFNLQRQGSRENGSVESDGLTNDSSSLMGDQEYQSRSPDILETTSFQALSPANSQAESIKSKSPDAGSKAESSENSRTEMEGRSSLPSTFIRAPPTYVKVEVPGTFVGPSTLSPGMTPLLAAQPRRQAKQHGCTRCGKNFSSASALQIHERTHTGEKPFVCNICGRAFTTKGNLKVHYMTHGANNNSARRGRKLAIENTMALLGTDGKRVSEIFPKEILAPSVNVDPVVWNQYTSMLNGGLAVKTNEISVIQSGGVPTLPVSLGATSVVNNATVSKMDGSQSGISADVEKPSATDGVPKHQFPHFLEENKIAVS
Technique: universal PBM
Molecule type: double-stranded DNA, one strand shown
Sample: in vitro
Concentration: 600 nM
Notes: 8-mer, flanks averaged, mean of replicates
Direction: higher = stronger binding
Oligonucleotide	E-score
CTACAACA	0.0756
ACTCTCTA	0.126
AATCAGTG	0.0612
GGTCGCCA	-0.28
ACGATTCT	0.104
ATCGTCAC	0.0447
AGATTAAC	0.146
AACCCAGG	-0.271
AACACAGA	0.0413
ACCATAAC	0.247
ACGAAAGC	-0.0873
CACAAGTC	-0.000355
CTGATACA	0.0826
AAGAACCG	-0.0568
ACATTAAA	0.308
CCCCGACC	-0.366
CAAATACG	0.11
CAAGCATA	0.149
TAGCAGAA	0.0328
AGCGGCAG	-0.301
AAGTGTCC	-0.131
GTCAGCCA	-0.163
AACCGCCG	-0.219
CACGCATC	-0.0776
CCTGGCAA	-0.25

Block 3
Target: RING finger protein unkempt homolog, zinc fingers 1-6, SBP tag (UNK, Homo sapiens, UniProt Q9C0B0, residues 30-357)
Chain of UniProt Q9C0B0 (30-357, looked up): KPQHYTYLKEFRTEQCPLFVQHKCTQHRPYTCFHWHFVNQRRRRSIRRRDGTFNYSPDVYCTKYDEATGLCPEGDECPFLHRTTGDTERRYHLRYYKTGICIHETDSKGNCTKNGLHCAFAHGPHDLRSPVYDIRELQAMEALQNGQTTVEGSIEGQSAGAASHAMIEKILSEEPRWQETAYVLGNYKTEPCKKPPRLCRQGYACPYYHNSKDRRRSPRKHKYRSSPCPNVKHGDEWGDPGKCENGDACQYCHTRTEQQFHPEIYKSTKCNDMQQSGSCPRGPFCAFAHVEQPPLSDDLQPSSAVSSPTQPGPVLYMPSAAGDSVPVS
Technique: RNA Bind-n-Seq
Molecule type: RNA
Sample: in vitro
Concentration: 100 nM
Notes: RNA with constant flanks, vertebrate orthologous sites, ends assumed
Baseline: input RNA pool
Direction: higher = stronger binding
All sequences stand within: GGGAGUUCUACAGUCCGACGAUC … CAACAGAGGAUUGAGCAUCA
Oligonucleotide	bound/input enrichment [ratio]
AAAUUCAACAAAAAUGUUUCCACUGGGUUUGCUUUGUAAGAAAAAAUGAACCCGAACAUAUAGAGCUUUUUAAUAGCACUAACCAAUGCCUUUUUAGAUGUAUUUUUGAUGUAUAUAUCU	0.575
UCUAUACGAUUUUAAAGACACUUCCUUACAAGGCACUUUGGCUCUUCAUAGAUCCCAUCGUAUUUACAGAUCUAUUUUUUUAAAAUAGCAGUAUGAACUCAAAGGGGACUUGGUUGGCGU	0.686
CCGAAAGGCCAAAUUCCCUCCUCCCUUCUUCUGCUUCUACCAACUGGAAGCACAGAAAACUAGAAUUUCAUUUAUUUUGUUUUUAAAAAAAUCUAUGUUGAUUUCUUGUAACAUCCAAUA	0.4
AUAGUGUUCAUUGUACUGCAACAAUCAUCCUACAUCUGAGCUAGCCACAUAAUACUCUACUAACAGAAUCGUUGAUUAUUACCUUUUAAAUCAUCUGUUUUGUCAGAUACCGGAAAUGUA	0.676
UUACAGUCAUUGAUGGACUCUAUUUUUUUAUUAUUACUUGGACCUUGGUCGUUUUUAUACUAGCAAAAUGUCUUGUUUUAAUUUGUGUUUUUUUUGGGGGGGGGAGGGAGUGAACUUGCU	2.46
AAUAGGAGCAGCCUAGGCUGCUUGAGCUUUGGGAAAUGAGCUUUGCUUUUUAUAUUUAAAUAGGAUACUUUUAUAUGAUGGGUGCUUUCGAGCGUGAAUGCGGCAGGCUCUCCAUUUCAG	0.823
GUGGUCUGCAGAGCAGUCGGCUGCUGGAGCAAGUCUGCACAGUGCCCACCAUCCACCAUCCUACUUCCAGGAAUUUAAUAUUUUUGAAAGUUUUACAAUGCUGUAUAUUCAAAGAUUGUU	0.262
UUUUAUUGGAUCAGGUCUGUAAAUGUGUACUAAAAAAUCAGAGUUUAUUUAUAAACAGAAUAGUUUAUUUAAAGAGAAGUUCCUCAUUGAUAUUGUGAUAUGCAUUAAUUCCAUUUGUUA	0.271

Block 4
Target: Eukaryotic initiation factor 4A-I (EIF4A1, Homo sapiens, UniProt P60842, residues 1-406, full length assumed)
Chain of UniProt P60842 (whole entry, looked up): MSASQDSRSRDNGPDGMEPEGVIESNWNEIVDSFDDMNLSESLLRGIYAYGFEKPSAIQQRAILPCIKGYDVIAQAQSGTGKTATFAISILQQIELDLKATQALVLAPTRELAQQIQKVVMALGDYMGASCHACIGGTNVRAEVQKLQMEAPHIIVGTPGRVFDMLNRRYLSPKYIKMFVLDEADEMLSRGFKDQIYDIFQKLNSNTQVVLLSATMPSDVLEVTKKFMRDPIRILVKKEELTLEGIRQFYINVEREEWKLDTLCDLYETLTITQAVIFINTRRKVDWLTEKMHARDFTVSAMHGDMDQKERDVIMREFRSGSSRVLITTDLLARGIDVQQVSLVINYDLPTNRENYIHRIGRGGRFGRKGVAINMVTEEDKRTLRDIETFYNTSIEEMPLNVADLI
Technique: RNA Bind-n-Seq
Molecule type: RNA
Sample: in vitro
Concentration: not given
Notes: 4-mer, random 30-nt RNA, single round
Added: RocA, ADP, phosphate
Baseline: input library
Direction: higher = stronger binding
Oligonucleotide	4-mer enrichment
ACGU	0.723 fold
GUGU	1.18 fold
CAAU	0.729 fold
AGCC	0.809 fold
UGAG	2.79 fold
UGGU	0.955 fold
UCCC	0.597 fold
GCUG	0.828 fold
CAUU	0.714 fold
GAGA	3.78 fold
AGCA	1.28 fold
AGAC	1.02 fold
AUUC	0.605 fold
UCUG	0.702 fold
UUAA	0.994 fold

Block 5
Target: Histone acetyltransferase KAT6A, winged helix 1, GST fusion (KAT6A, Homo sapiens, UniProt Q92794, residues 1-85)
Technique: protein binding microarray
Molecule type: double-stranded DNA, one strand shown
Sample: in vitro
Concentration: not given
Notes: 8-mer, flanks averaged, mean of 2 arrays, mostly near background
Baseline: not given
Direction: higher = stronger binding
Residues (chain): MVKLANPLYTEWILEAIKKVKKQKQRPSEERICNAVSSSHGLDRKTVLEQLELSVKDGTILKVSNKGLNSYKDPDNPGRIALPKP
Oligonucleotide	E-score
AAACTATC	-0.043
TGAGAGAA	-0.268
CGAATAAG	-0.125
ACAGCACG	0.042
ACACAGTG	-0.168
CATACGAC	-0.106
CAGACGAC	-0.0814
AGTCAATC	-0.133
CGTCTAGC	0.00312
CGATGAGC	0.132
CATAGCGA	0.00098
GCGGACGA	0.23
GAGCGCCA	0.279
GGAGGACC	0.0643
ACTCTCTC	-0.145
AACCTCAT	-0.154
CAGAAACA	-0.0746
ACGTCCCC	0.0188
ATGCCTTC	-0.266

Block 6
Target: Hepatocyte nuclear factor 3-alpha (Foxa1, Mus musculus, UniProt P35582, residues 1-468, full length assumed)
Chain of UniProt P35582 (whole entry, looked up): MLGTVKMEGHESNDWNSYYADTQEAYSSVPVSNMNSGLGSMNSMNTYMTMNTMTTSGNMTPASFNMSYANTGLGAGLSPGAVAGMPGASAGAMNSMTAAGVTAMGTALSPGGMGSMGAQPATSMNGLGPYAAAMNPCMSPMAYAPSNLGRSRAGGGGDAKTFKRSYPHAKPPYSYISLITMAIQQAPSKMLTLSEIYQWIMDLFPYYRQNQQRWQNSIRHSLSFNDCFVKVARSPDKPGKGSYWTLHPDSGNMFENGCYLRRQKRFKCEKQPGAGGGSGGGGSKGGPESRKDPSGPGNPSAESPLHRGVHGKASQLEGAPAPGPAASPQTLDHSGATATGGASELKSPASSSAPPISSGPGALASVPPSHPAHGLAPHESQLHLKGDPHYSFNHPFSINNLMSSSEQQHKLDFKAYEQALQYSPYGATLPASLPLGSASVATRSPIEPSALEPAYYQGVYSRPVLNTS
Technique: EMSA with sequencing
Molecule type: double-stranded DNA, one strand shown
Sample: in vitro
Concentration: 10 and 20 nM
Notes: whole designed probe, mean of two concentrations, ends assumed
Baseline: negative control set to 0
Direction: higher = stronger binding
All sequences stand within: GTGAGCGGTGCCCATTGATGGGGAAC … TTTCACTGGGATCGTGGGGAC
Oligonucleotide	normalised bound fraction [ratio]
GGAAGTCTGCAATGCTTTGAACAGCAGGGTGTGGGAGGAAGTGTTGGCCCTACTCACCCTGCCTGACCTCCCTGGGCTGTGACGTCAGAGCTCAGATTACATAGCTGAGGGACTGGGAATGCTGGAGTGGAGGAAGGAGGTGATGAATGATTCAGGAGGACACACAACATCCCTGCTTTTCTTTCCTGCTGGC	-0.0478
AGCATTATCAGCAGGGGCCAGGCTACTTGGCCCACATCAGATTACCTATGTCCCAGGCCAGCCTGCACTCATTAGATCAGTGCAGCCATAATTAGATTGCACAGGAGGTGGCAGAGTGTGTACTTGTGTACTTGACCTCAGACATCAAATACTTAAGTTTTGAAAGTACTGAACTGTGATGTCAGCTTGGTTT	0.00892
AAGATATGATTATTATACGTGTGTCTGTTTTTATATAGAATTTGTTAGAAGTCTCTAGTACACCATACCAGAAAAAGTTTAGCTAAAACAAAGTAAACATGAAATATTGCAAAGAAAACCAATAGAAACTTAACAGAATAAATAATATTTATTTTCCAGAATAAAGACACAATATAAGTGAAGCTTCAAATTT	0.389
AATATTTCAAACACTACGTACCCCAACTGACATTTGAGTAGCAGTTAAGTTCTTGGAACGCTGCCATTTTGATCTAGCTGTTACGTAACCATTGTAAACAGGATGAAATAGGGCAGTTAAAAGACTAATGGTCAGTGAAATCTACAACAGGAATGGAAAGAATTTTCCCCTTAAAAATTTGGAAATCCTTATT	-0.00155
CTCCTATTTGTTCTGTTTTTCTGAAAAACCCTAACATGTAACCAAATTACCCCTTTCTTCACACATCATTCTTCCAATCATGCTTTCTTTAAAATAATCTGCTAAATGTTTCTTCCTTTTAAGAAAGGTCTGTGTGCTACAGATTACCCTGCAAATGTTCTTTGTGACTATGTAGGAAAGATCAGGCACATCC	0.0128
AGATTGCTTTGTGATTGTTTTGCCAGATTTTGCTTTCACCCACAAAAACACTAAGCTCTGCCAACCAGTTCGGCCATTTTGTAAGTTAGCAAAATAATCTCTAAAGTGAAATGGCGGCTTTTGGGCGGGGCTCCCACAGGCTGGCTCCTTTTAAGTGGAATGTTGCTGTGCTGCCCTCTTGTGGCCATTTGGG	-0.0267

A few entries again (block 2):
Oligonucleotide	E-score
CAAGCATA	0.149
TAGCAGAA	0.0328
AGCGGCAG	-0.301
AAGTGTCC	-0.131
GTCAGCCA	-0.163
AACCGCCG	-0.219
CACGCATC	-0.0776
CCTGGCAA	-0.25
